{"data": "Measurements collected from several papers", "note": "Each numbered part is a random draw from the data of one study; scales do not carry over between parts."}
{"data": "Set 1", "Substance": "PhoQ, residues 284 288 289 292 302 303 DDMDFR", "method": "Sort-seq", "item": "YFP reporter", "sample": "E. coli", "setting": "PhoQ-PhoP variant library", "together with": "10 µM Mg2+", "reference": "high Mg2+ state", "reading": "higher = stronger signaling"}
{"target": "PhoP, residues 12 14 15 18 19 VGHWL (Escherichia coli, UniProt P23836)", "fold induction": 0.633}
{"target": "PhoP, residues 12 14 15 18 19 LHHYF (Escherichia coli, UniProt P23836)", "fold induction": 0.845}
{"target": "PhoP, residues 12 14 15 18 19 NFFVT (Escherichia coli, UniProt P23836)", "fold induction": 0.606}
{"target": "PhoP, residues 12 14 15 18 19 TPWTL (Escherichia coli, UniProt P23836)", "fold induction": 0.992}
{"data": "Set 2", "target": "Ras GTPase-activating protein-binding protein 1, full length (G3BP1, Homo sapiens, UniProt Q13283)", "method": "RNA Bind-n-Seq", "form": "RNA", "sample": "in vitro", "concentration": "200 nM", "setting": "whole 134-nt RNA, ends assumed", "together with": "150 mM LiCl", "reference": "input library", "reading": "higher = stronger binding", "library": "7-deaza-guanosine replaces G", "constant ends, left off below": "GGGAGUUCUACAGUCCGACGAUC … UGGAAUUCUCGGGUGUCAAGG", "chain of UniProt Q13283 (whole entry, looked up)": "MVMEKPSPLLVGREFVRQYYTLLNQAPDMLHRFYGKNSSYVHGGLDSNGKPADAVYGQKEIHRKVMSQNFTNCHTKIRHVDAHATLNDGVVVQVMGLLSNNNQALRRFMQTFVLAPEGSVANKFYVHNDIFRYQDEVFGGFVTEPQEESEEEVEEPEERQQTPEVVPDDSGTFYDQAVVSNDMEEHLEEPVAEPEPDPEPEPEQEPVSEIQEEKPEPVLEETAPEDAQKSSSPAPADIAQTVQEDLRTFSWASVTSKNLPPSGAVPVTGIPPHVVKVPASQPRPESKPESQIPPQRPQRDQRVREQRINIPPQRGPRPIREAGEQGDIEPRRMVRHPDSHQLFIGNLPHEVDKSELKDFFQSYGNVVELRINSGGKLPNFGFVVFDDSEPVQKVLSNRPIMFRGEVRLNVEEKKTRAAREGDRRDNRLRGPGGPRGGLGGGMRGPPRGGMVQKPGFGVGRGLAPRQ"}
{"Oligonucleotide": "ACCAUGCAGGUGGUCAUCUUUGGGAAGUGGGGCAAGGGGGGGAUAGGGAGGGGGGUAACACUUUGGGAACAGGUGGUCCCAGGUCGUUUC", "log2 enrichment": 0.659}
{"Oligonucleotide": "UAACUUUAGAGAAGGAUCUGAUGGAUAUGGCAGUGGACGUGGAUUUGGGGAUGGCUAUAAUGGGUAUGGAGGAGGACCUGGAGGUGGCAA", "log2 enrichment": -0.25}
{"Oligonucleotide": "GUCCUGUGCUACACAUCGUAUGUACCGAAUCGGUUUUUGGUUUUUGGGGUUUUUGGGGAAAGUAUUAUGUUACGCCGUUCGGAUCUGCAC", "log2 enrichment": -0.0501}
{"Oligonucleotide": "GUCCUGUGCUACACAUCGUAUGUACCGAAUCGGGGAAAGGGGUGGGGAAAAAAAGGGGAAAGUAUUAUGUUACGCCGUUCGGAUCUGCAC", "log2 enrichment": -0.569}
{"Oligonucleotide": "ACCAUGCAGGUGGGCAUCUUUGGGAAGGGGGGCAAGGGGGGGAUAGGGAGGGGGGUAACACUUUGGGAACAGGUGGUCCCAGGUCGUUUC", "log2 enrichment": -0.125}
{"Oligonucleotide": "CACAGACAACACGCACCCACACAGACACAGAGGGAAGGGGUUGGGAUGGGGACAGGGUGCACAGCAGGGCAGGGUAGGACCCCAGCCCCU", "log2 enrichment": 0.363}
{"Oligonucleotide": "CAAGUCCUGUGCUACACAUCGUAUGUACCGAAUCGGGGUUUGGGUUUGGGUUUGGGAAAGUAUUAUGUUACGCCGUUCGGAUCUGCACUU", "log2 enrichment": -0.68}
{"Oligonucleotide": "CCUGUGCUACACAUCGUAUGUACCGAAUCGGGCCCCCCGGGCCCCCCGGGGCCCCCCGGGGAAAGUAUUAUGUUACGCCGUUCGGAUCUG", "log2 enrichment": -1.32}
{"Oligonucleotide": "UCCUGUGCUACACAUCGUAUGUACCGAAUCGGGGAAAGGGGUUUUUUUGGGGUUUGGGGAAAGUAUUAUGUUACGCCGUUCGGAUCUGCA", "log2 enrichment": -0.645}
{"Oligonucleotide": "AGUCCUGUGCUACACAUCGUAUGUACCGAAUCGGAAAAAGGGGAAAAAGGAAAAAGGGAAAGUAUUAUGUUACGCCGUUCGGAUCUGCAC", "log2 enrichment": -0.48}
{"Oligonucleotide": "UGGCCCGGGUGGCAUGCGGGGAGGAAGAGGUGGCCUCAUGGAUCGUGGUGGUCCCGGUGGAAUGUUCAGAGGUGGCCGUGGUGGAGACAG", "log2 enrichment": 0.022}
{"data": "Set 3", "target": "Histone acetyltransferase KAT6A, winged helix 1, GST fusion (KAT6A, Homo sapiens, UniProt Q92794, residues 1-85)", "method": "protein binding microarray", "form": "double-stranded DNA, one strand shown", "sample": "in vitro", "concentration": "not given", "setting": "8-mer, flanks averaged, mean of 2 arrays, mostly near background", "reference": "not given", "reading": "higher = stronger binding", "Construct (chain)": "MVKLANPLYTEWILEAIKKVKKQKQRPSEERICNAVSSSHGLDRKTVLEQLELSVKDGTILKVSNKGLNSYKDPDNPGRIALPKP"}
{"Oligonucleotide": "AAGAACAC", "E-score": -0.0591}
{"Oligonucleotide": "ACTTTACT", "E-score": -0.0873}
{"Oligonucleotide": "AAGGTGGT", "E-score": -0.163}
{"Oligonucleotide": "GAGCGGGA", "E-score": 0.273}
{"Oligonucleotide": "CTGGCACA", "E-score": -0.172}
{"Oligonucleotide": "AACGAGCT", "E-score": -0.23}
{"Oligonucleotide": "AGCGCCGG", "E-score": 0.44}
{"Oligonucleotide": "GAATCTAA", "E-score": -0.0242}
{"Oligonucleotide": "CAGGTATG", "E-score": -0.105}
{"Oligonucleotide": "CCGAGCCG", "E-score": 0.389}
{"Oligonucleotide": "GAGAAACC", "E-score": -0.00921}
{"Oligonucleotide": "ACCTGTCC", "E-score": -0.0794}
{"Oligonucleotide": "CCACTGGG", "E-score": -0.22}
{"Oligonucleotide": "ATACAGAG", "E-score": -0.0788}
{"Oligonucleotide": "ACTACGGG", "E-score": 0.307}
{"Oligonucleotide": "CTGTATTA", "E-score": 0.0492}
{"Oligonucleotide": "GGTTAGAA", "E-score": -0.0941}
{"Oligonucleotide": "GGGAACGA", "E-score": 0.0612}
{"Oligonucleotide": "GCCACCTA", "E-score": -0.0389}
{"Oligonucleotide": "CAGGGTAC", "E-score": 0.0293}
{"Oligonucleotide": "ACCCCAAT", "E-score": -0.238}
{"Oligonucleotide": "AGTGCGTC", "E-score": 0.158}
{"data": "Set 4", "target": "RNA binding protein fox-1 homolog 2, RRM domain, GST-SBP tag (RBFOX2, Homo sapiens, UniProt O43251-10, residues 100-194)", "method": "RNA Bind-n-Seq", "form": "RNA", "sample": "in vitro", "concentration": "365 nM", "setting": "natural RNA segment, single round, ends assumed", "reference": "no-protein control", "reading": "higher = stronger binding", "constant ends, left off below": "GGGAGUUCUACAGUCCGACGAUC … UGGAAUUCUCGGGUGCCAA", "Construct (chain)": "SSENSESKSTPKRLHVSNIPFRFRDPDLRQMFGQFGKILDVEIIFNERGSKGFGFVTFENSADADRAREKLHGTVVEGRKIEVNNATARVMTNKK"}
{"Oligonucleotide": "UUGAGUCUGGCAUCUUUCCCUCAGCUUAAUGCUUUUGAGUCAUUCAUGAUGUGUGCGUGUGGUUUGUUCCUUCUCCUUGCCGGGAAGUAUUUCAUUGCAUGGGCGUACUA", "RBNS enrichment (R)": 1.34}
{"Oligonucleotide": "UAUACACUCUUUGGUUCGUAUAGGCCAUAUUCCAACUGGCUUUUUAGUAAUAGAAAUCCAGUAUAUAAUGUAUCAAAUACAAUUGAGGUUCUAACCUAGUGUGUUAAUUU", "RBNS enrichment (R)": 0.368}
{"Oligonucleotide": "ACUGUUGCCAGAGAUGGAGGUUCUCUCGGAGUAUCUGGGAACUGUGCCUUUGAGUUUCCUCAGGCUGCUGGAGGAAAACUGAGACUCAGACAGGAAAGGGAAGGCCCCAC", "RBNS enrichment (R)": 0.611}
{"Oligonucleotide": "CUGAUUUGCUCUCAGCUGAUGUGUCCUGUACACAGUGGGAAGAUUUUAGUUCACACUUAGUCUAACUCCCCCAUUUUACAGAUUUCUCACUAUAUAUAUUUCUAGAAGGG", "RBNS enrichment (R)": 0.511}
{"Oligonucleotide": "UUAGAAAGUCCAAGUGUUCAGGACUUUUAUACCUGUUAUACUUUGGCUUGGUUUCCAUGAUUCUUACUUUAUUAGCCUAGUUUAUCACCAAUAAUACUUGACGGAAGGCU", "RBNS enrichment (R)": 0.471}
{"Oligonucleotide": "AGCGCCGGGUAUGCUGCCUCUCAGUGUGUGGUGCCUAGCCUCCAGGUGGGGGCUCCUGCCCUCCUCCAACAACCCAGGACACCCACGCCUCACCCCUCGGUGCCUGGGCC", "RBNS enrichment (R)": 0.288}
{"Oligonucleotide": "UAUGACUCAGGAGCCUCCUAGGGCUUAUCAUCAGCCCUCACACCCGCUUCCCCCUCCAACCCACAGCCUUUGCUUCCAGGUGGCAGGAUUACUACUUUGCCUCUUCAGCA", "RBNS enrichment (R)": 0.729}
{"Oligonucleotide": "CUUGGGCUACUGUAGAUUUGUAUCCUUGGUGAAUUUGGGGUUCCCAUCGGAUUGAACAUACACUGUAUAUUUUGCAAUAGUUACCUCAAGGCCUACUGACCAAAUUGUUG", "RBNS enrichment (R)": 0.549}
{"Oligonucleotide": "UAUACUUUAUUUACCCAUGUGUAUAUUUUAUGAUCAUGAUCUAAGCUGUUAAUUCUUUCAUUCAUGUCCCUGCUGAGACACUGAUAUUAGCAACUUAGAGUUGGUGAGUU", "RBNS enrichment (R)": 0.297}
{"Oligonucleotide": "UUUUUAAUUCAAUCUGGAAUCAGAAAGCGGUGGAUUCUGGCAAAUGGUCCUUGUGCCCUCCCCACUCAUCCCUGGUCUGGUCCCCUGUUGCCUAUAGCCCUUUACCCUGA", "RBNS enrichment (R)": 0.413}
{"Oligonucleotide": "UUUAUUUUAAAAACCAGUGGGAAAGAGUGGGGGGUUUCUUUUUAUGUCUGGGUCAUUCAGGCAGUACAUCUGAAUUAAGCUGAAUGUAGACAAAUAAAGAAAAACAAAAC", "RBNS enrichment (R)": 0.577}
{"Oligonucleotide": "AAGUCAGGGCCCACCCCAUCUGAGGCAGAGAAGACUCGAGUCCAGCCCCCAGGAAGCCUGCUCCCCUCUCUGGCCCAUGGUCCUGCUUCAUGCUUUGGGUCAGGAGGCCA", "RBNS enrichment (R)": 0.399}
